Published values pooled from the literature.
Each line is one published result; not all experiments were run side by side. ± gives the spread as reported.
HDAC11: Histone deacetylase 11 (HDAC11, Homo sapiens, UniProt Q96DB2)
Sequence of UniProt Q96DB2 (whole entry, looked up): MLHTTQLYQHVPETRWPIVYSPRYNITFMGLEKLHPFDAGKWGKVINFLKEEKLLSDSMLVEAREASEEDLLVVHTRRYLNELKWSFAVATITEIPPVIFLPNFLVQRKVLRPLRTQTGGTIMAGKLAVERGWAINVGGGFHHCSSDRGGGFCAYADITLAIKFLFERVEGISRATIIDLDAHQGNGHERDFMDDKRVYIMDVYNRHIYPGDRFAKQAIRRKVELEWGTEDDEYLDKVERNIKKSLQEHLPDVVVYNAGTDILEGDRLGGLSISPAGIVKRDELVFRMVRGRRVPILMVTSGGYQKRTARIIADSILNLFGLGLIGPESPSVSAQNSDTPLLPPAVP
SIRT5: NAD-dependent protein deacylase sirtuin-5, mitochondrial (SIRT5, Homo sapiens, UniProt Q9NXA8)
Sequence of UniProt Q9NXA8 (whole entry, looked up): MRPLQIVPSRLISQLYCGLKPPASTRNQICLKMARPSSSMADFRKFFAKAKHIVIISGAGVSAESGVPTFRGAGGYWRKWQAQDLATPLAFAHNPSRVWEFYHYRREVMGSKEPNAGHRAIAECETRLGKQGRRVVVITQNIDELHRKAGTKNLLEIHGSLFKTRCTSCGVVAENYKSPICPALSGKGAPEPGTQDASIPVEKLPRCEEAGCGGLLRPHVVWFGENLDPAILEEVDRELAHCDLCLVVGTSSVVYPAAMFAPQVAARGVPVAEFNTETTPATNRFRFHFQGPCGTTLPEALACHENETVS
Genome polyprotein NS2B-NS3 protease: Genome polyprotein, NS2B-NS3 protease (dengue virus type 2, UniProt P29990)
TNKS: Poly [ADP-ribose] polymerase tankyrase-1 (TNKS, Homo sapiens, UniProt O95271)
Sequence of UniProt O95271 (whole entry, looked up): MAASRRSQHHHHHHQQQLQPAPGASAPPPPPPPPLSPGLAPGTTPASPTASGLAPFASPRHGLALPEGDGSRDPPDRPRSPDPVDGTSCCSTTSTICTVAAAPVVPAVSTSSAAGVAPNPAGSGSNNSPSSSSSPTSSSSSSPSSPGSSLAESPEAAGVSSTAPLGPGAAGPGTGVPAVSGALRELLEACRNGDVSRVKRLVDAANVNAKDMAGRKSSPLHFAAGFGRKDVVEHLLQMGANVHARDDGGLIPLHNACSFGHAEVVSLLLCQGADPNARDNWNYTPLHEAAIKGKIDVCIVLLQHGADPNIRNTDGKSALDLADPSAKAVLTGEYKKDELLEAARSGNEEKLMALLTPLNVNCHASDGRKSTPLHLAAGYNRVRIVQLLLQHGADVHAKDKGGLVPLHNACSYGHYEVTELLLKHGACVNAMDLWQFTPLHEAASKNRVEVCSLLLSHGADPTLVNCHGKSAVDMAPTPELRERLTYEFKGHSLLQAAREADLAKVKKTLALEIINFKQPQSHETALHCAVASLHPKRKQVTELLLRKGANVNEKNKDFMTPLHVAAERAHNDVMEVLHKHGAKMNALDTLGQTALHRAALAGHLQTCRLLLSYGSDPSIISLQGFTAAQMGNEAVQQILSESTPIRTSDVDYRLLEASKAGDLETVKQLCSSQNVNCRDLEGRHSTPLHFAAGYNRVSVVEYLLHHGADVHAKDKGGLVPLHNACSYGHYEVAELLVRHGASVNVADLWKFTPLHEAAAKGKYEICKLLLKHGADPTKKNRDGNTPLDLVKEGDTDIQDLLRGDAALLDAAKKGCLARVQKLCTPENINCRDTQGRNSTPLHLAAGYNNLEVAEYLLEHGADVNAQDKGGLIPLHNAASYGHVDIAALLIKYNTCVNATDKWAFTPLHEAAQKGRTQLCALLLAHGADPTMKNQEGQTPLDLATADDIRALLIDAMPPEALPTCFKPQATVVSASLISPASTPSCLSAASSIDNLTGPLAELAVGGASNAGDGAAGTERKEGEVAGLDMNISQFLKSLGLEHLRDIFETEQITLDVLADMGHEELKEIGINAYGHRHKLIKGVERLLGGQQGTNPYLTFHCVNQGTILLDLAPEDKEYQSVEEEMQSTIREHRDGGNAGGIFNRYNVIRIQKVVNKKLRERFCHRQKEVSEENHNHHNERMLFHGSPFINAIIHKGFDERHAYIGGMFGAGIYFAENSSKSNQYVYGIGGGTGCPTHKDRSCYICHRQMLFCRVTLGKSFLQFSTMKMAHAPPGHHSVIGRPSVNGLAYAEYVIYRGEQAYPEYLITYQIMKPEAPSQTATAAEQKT
Sequence of UniProt Q6VAB6 (whole entry, looked up): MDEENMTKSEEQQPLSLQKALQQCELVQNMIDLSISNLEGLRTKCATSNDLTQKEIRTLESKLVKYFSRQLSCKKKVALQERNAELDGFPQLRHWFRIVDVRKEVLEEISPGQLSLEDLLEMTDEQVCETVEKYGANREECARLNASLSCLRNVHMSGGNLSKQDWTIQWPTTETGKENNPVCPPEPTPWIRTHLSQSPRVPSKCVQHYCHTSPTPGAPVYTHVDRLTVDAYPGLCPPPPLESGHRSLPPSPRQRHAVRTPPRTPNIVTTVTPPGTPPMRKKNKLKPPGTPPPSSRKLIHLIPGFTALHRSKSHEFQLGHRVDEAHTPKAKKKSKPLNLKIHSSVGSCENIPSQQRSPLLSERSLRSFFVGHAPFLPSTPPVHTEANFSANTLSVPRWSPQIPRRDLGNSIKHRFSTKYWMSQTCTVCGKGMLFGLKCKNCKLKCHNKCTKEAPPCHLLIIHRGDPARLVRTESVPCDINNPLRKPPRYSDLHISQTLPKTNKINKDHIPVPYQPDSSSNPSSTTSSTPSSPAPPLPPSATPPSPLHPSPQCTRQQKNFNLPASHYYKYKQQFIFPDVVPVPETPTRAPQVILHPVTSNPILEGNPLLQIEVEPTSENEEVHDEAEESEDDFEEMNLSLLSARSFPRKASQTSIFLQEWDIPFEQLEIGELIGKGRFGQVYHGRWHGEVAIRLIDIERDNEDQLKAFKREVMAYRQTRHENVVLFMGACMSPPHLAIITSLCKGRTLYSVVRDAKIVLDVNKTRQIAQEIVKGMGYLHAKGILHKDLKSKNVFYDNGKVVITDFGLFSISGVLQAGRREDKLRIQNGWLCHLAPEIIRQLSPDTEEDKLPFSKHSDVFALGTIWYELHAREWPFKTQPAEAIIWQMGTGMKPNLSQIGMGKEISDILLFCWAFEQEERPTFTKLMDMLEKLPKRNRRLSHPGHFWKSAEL
Sequence of UniProt P41597 (whole entry, looked up): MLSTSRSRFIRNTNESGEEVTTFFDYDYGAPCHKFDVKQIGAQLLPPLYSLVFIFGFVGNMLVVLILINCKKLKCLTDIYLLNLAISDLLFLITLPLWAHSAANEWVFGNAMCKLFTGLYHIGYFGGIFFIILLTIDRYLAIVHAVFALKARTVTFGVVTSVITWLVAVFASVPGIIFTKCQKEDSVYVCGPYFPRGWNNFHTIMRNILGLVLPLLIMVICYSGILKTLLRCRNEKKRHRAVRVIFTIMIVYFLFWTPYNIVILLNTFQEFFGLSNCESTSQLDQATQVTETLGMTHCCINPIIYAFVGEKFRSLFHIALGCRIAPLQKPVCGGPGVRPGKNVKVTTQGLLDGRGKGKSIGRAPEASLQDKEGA
Sequence of UniProt P46094 (whole entry, looked up): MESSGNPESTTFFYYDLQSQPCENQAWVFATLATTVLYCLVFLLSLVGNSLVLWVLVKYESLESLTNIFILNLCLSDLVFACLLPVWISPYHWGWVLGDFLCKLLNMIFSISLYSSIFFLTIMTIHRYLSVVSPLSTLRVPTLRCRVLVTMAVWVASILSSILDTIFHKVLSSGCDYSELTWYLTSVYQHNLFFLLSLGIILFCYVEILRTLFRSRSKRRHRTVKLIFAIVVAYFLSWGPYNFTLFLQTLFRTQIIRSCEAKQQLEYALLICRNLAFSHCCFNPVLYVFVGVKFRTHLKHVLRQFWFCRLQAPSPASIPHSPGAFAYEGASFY
Sequence of UniProt Q00987 (whole entry, looked up): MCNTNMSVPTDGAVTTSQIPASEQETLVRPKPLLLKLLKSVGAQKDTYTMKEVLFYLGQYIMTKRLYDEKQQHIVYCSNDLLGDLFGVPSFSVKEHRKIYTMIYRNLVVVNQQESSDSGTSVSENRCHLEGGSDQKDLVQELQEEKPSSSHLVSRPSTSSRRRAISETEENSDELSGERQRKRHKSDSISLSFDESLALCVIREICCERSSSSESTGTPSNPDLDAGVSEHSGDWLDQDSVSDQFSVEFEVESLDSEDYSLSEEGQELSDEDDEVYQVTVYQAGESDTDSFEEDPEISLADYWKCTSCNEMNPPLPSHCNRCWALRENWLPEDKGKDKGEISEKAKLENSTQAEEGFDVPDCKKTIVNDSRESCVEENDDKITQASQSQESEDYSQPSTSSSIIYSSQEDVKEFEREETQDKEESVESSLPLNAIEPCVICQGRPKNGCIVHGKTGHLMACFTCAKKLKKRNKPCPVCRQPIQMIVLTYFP
Sequence of UniProt P18113 (whole entry, looked up): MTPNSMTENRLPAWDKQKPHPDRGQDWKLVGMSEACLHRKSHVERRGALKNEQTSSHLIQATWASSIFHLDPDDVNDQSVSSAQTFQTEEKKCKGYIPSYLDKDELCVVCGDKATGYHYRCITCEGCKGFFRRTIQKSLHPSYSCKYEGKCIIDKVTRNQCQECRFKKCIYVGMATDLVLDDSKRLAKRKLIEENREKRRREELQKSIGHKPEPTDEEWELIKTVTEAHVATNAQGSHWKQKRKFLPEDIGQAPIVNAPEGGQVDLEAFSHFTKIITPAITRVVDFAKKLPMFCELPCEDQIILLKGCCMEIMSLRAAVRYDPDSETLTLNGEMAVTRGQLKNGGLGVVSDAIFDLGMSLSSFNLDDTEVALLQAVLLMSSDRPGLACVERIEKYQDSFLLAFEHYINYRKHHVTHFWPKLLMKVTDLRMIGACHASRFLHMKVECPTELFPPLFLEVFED
Sequence of UniProt Q99873 (whole entry, looked up): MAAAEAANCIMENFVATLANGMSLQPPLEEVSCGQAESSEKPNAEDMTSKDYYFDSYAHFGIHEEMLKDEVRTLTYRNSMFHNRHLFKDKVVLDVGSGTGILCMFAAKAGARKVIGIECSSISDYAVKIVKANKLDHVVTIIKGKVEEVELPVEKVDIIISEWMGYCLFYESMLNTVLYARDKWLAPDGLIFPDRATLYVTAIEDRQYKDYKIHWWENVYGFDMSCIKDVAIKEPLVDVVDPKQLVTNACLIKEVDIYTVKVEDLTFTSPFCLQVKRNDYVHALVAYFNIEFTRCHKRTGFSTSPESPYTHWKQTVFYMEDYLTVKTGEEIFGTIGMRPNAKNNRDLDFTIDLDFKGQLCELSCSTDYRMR

| SMILES | target | test | test system | conditions | scale | inhibition [%] |
| --- | --- | --- | --- | --- | --- | --- |
| O=C(NO)c1cncc(OS(=O)(=O)Oc2ccc(Br)cc2)c1 | HDAC11 |  |  | 10 µM |  | 45 |
| O=C(NC1CCC1)[C@H](Cc1c[nH]c2ccccc12)NC(=O)[C@H](CCCCNC(=S)NCCS(=O)(=O)O)NS(=O)(=O)c1cccc(F)c1 | SIRT5 | enzyme activity, inhibitor |  | 100 µM |  | 46 |
| Cc1nc2c(F)cc(-c3nc(Nc4ccc(CNC(=O)CCCCCCC(=O)NO)cc4)ncc3F)cc2n1C(C)C | Mapk1 (Mus musculus, UniProt P63085) | enzyme activity, inhibitor |  | 1 µM |  | 40 |
| O=C(Nc1cccc(N2CCOCC2)c1)c1cc(-c2ccccc2)n(-c2ccccc2)n1 | Genome polyprotein NS2B-NS3 protease | reporter gene | HeLa | 12.5 µM |  | 49 ± 13 |
| Cc1cccc(O[C@H]2CCC[C@@H](C(C)CNCc3ccncc3)C2)c1 (relative stereo) | PRKCZ (Homo sapiens, UniProt Q05513) | enzyme activity |  | 1 µM |  | -3 |
| COc1ncc2nc(C)n(Cc3ncc(S(N)(=O)=O)cc3F)c2c1-c1ccccc1 | CNR2 (Homo sapiens, UniProt P34972) | antagonist, cell-based |  | 10 µM |  | 8.62 |
| CCCCCCCCCCCCCCCC(=O)N[C@@H](CCCCN)C(=O)N[C@@H](CCCCN)C(=O)N[C@@H](CO)C(=O)N[C@@H](CCCNC(=N)N)C(=O)N[C@@H](C)C(=O)N[C@@H](CC(C)C)C(=O)N[C@@H](Cc1ccccc1)C(N)=O | F2RL3 (Homo sapiens, UniProt Q96RI0) | platelet aggregation, ex vivo LTA | human | 0.5 mg/kg, 30 min, added: AYPGKF 160 µM | baseline: baseline | 11 |
| COCC(=O)N1CCc2cc(-c3csc(NC(=O)c4cc(OC)cc(OC)c4)n3)ccc21 | Thyroid hormone receptor beta (Rattus norvegicus, UniProt P18113) |  | rat | 10 µM |  | 10 |
| CN(C)C/C=C/C(=O)Nc1ccc2nc(NCCCCCN(C)C)nc(NCCCCCCN(C)C)c2c1 | PRMT1 (Homo sapiens, UniProt Q99873) | enzyme activity, inhibitor, radiometric |  | 50 µM |  | 97 |
| NC(=O)c1cccc(NC(=O)c2cc(-c3ccc(Cl)cc3)n(-c3ccccc3)n2)c1 | Genome polyprotein NS2B-NS3 protease | enzyme activity, fluorogenic AMC substrate |  | 50 µM |  | 58 |
| CC(C)Cn1c(SCC(=O)N2CCc3ccccc3C2)nc2cc(Cl)ccc2c1=O | HRH4 (Homo sapiens, UniProt Q9H3N8) | ligand displacement, radioligand |  | 10 µM |  | -15 |
| O=C(NCc1ccccn1)c1cc(-c2ccccc2)n(-c2ccccc2)n1 | Genome polyprotein NS2B-NS3 protease | reporter gene | HeLa | 12.5 µM |  | 35 |
| CC(=O)C12NC(C)(C)CC1(C)C(=O)C1=C2c2c(c3c4n2C(C)(C)CC2=C4C4(CC(C)(C)NC(C)(C4)C2=O)CC3(C)C)C(=O)C(C)(C)N1 (single isomer, unassigned; (-)) | KCNA2 (Homo sapiens, UniProt P16389) | ion current, inhibitor, patch clamp | HEK-293T | 10 µM |  | 77.9 |
| CN1CCN(Cc2ccc(-c3ccc(CO[C@H]4CCC[C@@H]4NC(=O)c4cc(-c5cnn(C)c5)cnc4N)cc3)cc2)CC1 | KSR2 (Homo sapiens, UniProt Q6VAB6) | enzyme activity, inhibitor |  | 0.1 µM |  | 9 |
| O=C(CC1CC2CCC1C2)NCCNC(=O)Cn1c(=O)[nH]c(=O)c2ccccc21 (centres unmarked) | TNKS | enzyme activity, inhibitor |  | 50 nM |  | 2 |
| O=C(Nc1cccc(CNc2ncccn2)c1)c1cc(-c2ccccc2)n(-c2ccccc2)n1 | Genome polyprotein NS2B-NS3 protease | reporter gene | HeLa | 12.5 µM |  | 83 |

| SMILES | target | test | test system | conditions | scale | inhibition [%] |
| --- | --- | --- | --- | --- | --- | --- |
| CCCCCCCCCCCCNC(=S)NCCCC[C@H](NC(=O)OCc1ccccc1)C(=O)N[C@@H](Cc1c[nH]c2ccccc12)C(=O)NC(C)C | SIRT5 | enzyme activity, inhibitor |  | 100 µM |  | < 5 |
| CC(=O)N[C@H](C(=O)N[C@@H](CO)C(=O)N[C@@H](Cc1ccccc1)C(=O)N[C@H]1CCCCNC(=N)NCCCCNC(=N)NCCCC[C@@H](C(=O)N2CCC[C@H]2C(N)=O)NC(=O)[C@H](CC(C)C)NC(=O)[C@H](CC(C)C)NC(=O)[C@H](C)NC(=O)[C@H](Cc2c[nH]c3ccccc23)NC(=O)[C@H](Cc2ccc(O)cc2)NC(=O)[C@H](CCC(=O)O)NC1=O)[C@@H](C)O | MDM2 (Homo sapiens, UniProt Q00987) | protein-protein interaction, inhibitor, TR-FRET |  | 0.1 µM |  | ≥ 90 |
| O=C1CO[C@H](CNC(=O)C2(c3ccc(Cl)cc3)CC2)CN1C1Cc2ccccc2C1 | XCR1 (Homo sapiens, UniProt P46094) | β-arrestin recruitment, antagonist |  | 1 µM |  | 13 |
| Cc1onc(-c2ccc(F)cc2)c1C(=O)Nc1cccc(C(N)=O)c1 | Genome polyprotein NS2B-NS3 protease | reporter gene | HeLa | 12.5 µM |  | 20 ± 11 |
| N#Cc1c(Nc2ccccc2C(F)(F)F)s[nH]c1=O | SARM1 (Homo sapiens, UniProt Q6SZW1) | enzyme activity, inhibitor |  | 10 µM |  | 100 |
| NCc1ccc(NC(=O)c2cc(-c3ccccc3)n(-c3ccccc3)n2)cc1 | Genome polyprotein NS2B-NS3 protease | enzyme activity, fluorogenic AMC substrate |  | 50 µM |  | 37 |
| O=C1c2sc(-c3ccc(N4CCC(F)C4)nc3F)nc2CCN1c1cccnc1 (centres unmarked) | CCR2 (Homo sapiens, UniProt P41597) | ligand displacement, radioligand |  | 1 µM |  | -7 |
| CCn1cc(C(=O)O)c(=O)c2c(N)c(F)c(NC3CCCCC3)cc21 | RIPK3 (Homo sapiens, UniProt Q9Y572) | kinase activity |  | 0.1 µM, added: ATP at Km |  | 25.2 |
| O=C1c2sc(-c3ccc(N4CCC(CO)CC4)nc3F)nc2CCN1c1cccnc1 | NMDA receptor | radioligand binding |  | 1 µM, added: antagonist radioligand |  | -2 |
| C/C=C/C(=O)Nc1ccc2nc(NCCCCCN(C)C)nc(NCCCCCCN(C)C)c2c1 | PRMT9 (Homo sapiens, UniProt Q6P2P2) | enzyme activity, inhibitor, radiometric |  | 50 µM |  | 70 |
| Cc1cc(C(=O)NCCNC(=O)c2cccc(COc3ccccc3C(N)=O)c2)n[nH]1 | TNKS | enzyme activity, inhibitor |  | 50 nM |  | 100 |
| C[Si](C)(C)C[C@H](CN)CC(=O)O | TACR2 (Homo sapiens, UniProt P21452) | ligand displacement, radioligand |  | 250 µM |  | 0 |
| N#Cc1ccc(CNC(=O)c2cc(-c3ccccc3)n(-c3ccccc3)n2)cc1 | Genome polyprotein NS2B-NS3 protease | enzyme activity, fluorogenic AMC substrate |  | 50 µM |  | 28 |
| O=C(N1CCOCC1)n1ccnn1 | Acylamino-acid-releasing enzyme (Apeh, Mus musculus, UniProt Q8R146) | serine hydrolase activity, inhibitor, competitive gel-based ABPP | mouse T-cell proteome | 1 µM, 30 min, 37 °C |  | < 50 |
| NC(=O)c1cccc(NC(=O)c2cc(-c3ccccc3)n(-c3ccc(Br)cc3)n2)c1 | Genome polyprotein NS2B-NS3 protease | reporter gene | HeLa | 12.5 µM |  | 46 |
| O=C(/C=C/c1cccc(OS(=O)(=O)Oc2ccc(Br)cc2)c1)NO | HDAC11 |  |  | 10 µM |  | 38 |

Some of these lines once more:
| SMILES | target | test | test system | conditions | scale | inhibition [%] |
| --- | --- | --- | --- | --- | --- | --- |
| O=C(NO)c1cncc(OS(=O)(=O)Oc2ccc(Br)cc2)c1 | HDAC11 |  |  | 10 µM |  | 45 |
| O=C(NC1CCC1)[C@H](Cc1c[nH]c2ccccc12)NC(=O)[C@H](CCCCNC(=S)NCCS(=O)(=O)O)NS(=O)(=O)c1cccc(F)c1 | SIRT5 | enzyme activity, inhibitor |  | 100 µM |  | 46 |
| Cc1nc2c(F)cc(-c3nc(Nc4ccc(CNC(=O)CCCCCCC(=O)NO)cc4)ncc3F)cc2n1C(C)C | Mapk1 (Mus musculus, UniProt P63085) | enzyme activity, inhibitor |  | 1 µM |  | 40 |
